Measurements collected from several papers.
A part holds a random share of what one study measured. Changes are numbered by the printed parent chain.

Series 1 — technique: aptamer microarray, sandwich; form: DNA with 2'F-ANA; matrix: in vitro; concentration: 200 nM; together with: Cy3 exosite-II aptamer, 400 nM; reading: higher = stronger binding; oligonucleotide: GGTTGGTGTGGTTGG
Target: Prothrombin, mature alpha-thrombin (F2, Homo sapiens, UniProt P00734)
Setting: whole 15-mer aptamer, many near background
Modification | mean fluorescence intensity [a.u.]
2'F-ANA at 5 6 10 11 12 13 14 15 | 148
2'F-ANA at 2 3 7 14 15 | 450
2'F-ANA at 1 2 3 4 5 7 10 11 12 15 | 48.1
2'F-ANA at 1 2 5 6 9 11 14 | 43.5
2'F-ANA at 1 4 6 7 8 10 11 12 13 14 15 | 80.6
2'F-ANA at 1 4 7 9 10 11 13 | 52.7
2'F-ANA at 2 7 8 10 11 12 13 14 15 | 87.4
2'F-ANA at 2 7 9 11 12 13 15 | 471
2'F-ANA at 12 13 15 | 785
2'F-ANA at 8 10 12 13 14 15 | 95
2'F-ANA at 2 3 5 6 7 8 9 10 13 | 74
2'F-ANA at 1 2 3 4 5 6 7 10 12 13 14 | 46.6
2'F-ANA at 3 5 9 12 14 15 | 64
2'F-ANA at 1 3 4 7 8 9 15 | 259
2'F-ANA at 1 3 4 6 7 8 9 10 11 13 | 61
2'F-ANA at 1 2 3 4 7 11 14 15 | 65.7
2'F-ANA at 2 3 5 6 7 10 11 14 15 | 75.3
2'F-ANA at 2 3 5 6 8 10 12 14 15 | 49.4
2'F-ANA at 2 6 8 10 12 14 | 88.7
2'F-ANA at 1 5 9 10 12 13 14 15 | 43.1

Series 2 — technique: protein binding microarray; form: double-stranded DNA, one strand shown; matrix: in vitro; concentration: not given; reference: not given; reading: higher = stronger binding
Target: Histone acetyltransferase KAT6A, winged helix 2, GST fusion (KAT6A, Homo sapiens, UniProt Q92794, residues 85-181)
Setting: 8-mer, flanks averaged, mean of 2 arrays, mostly near background
Construct (chain): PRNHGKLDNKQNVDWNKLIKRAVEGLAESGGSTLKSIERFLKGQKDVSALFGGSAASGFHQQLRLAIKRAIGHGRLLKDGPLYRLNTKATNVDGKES
Oligonucleotide | E-score
AAAAACGA | -0.0793
CTACCGTA | -0.206
GCTAGTAA | -0.0343
AAGCGGGT | 0.0864
ATCTCAAA | -0.0241
GAAAGTGA | -0.0276
CATGCCGA | 0.225
CCGGGGTC | 0.166
CCATTGAG | 0.0472
ATACCCTA | -0.0991
AGGGCGCC | 0.145
CTGTTTCC | -0.0643
ACAAATCG | -0.0303
CCGAGTAC | 0.0646
CCAGTGTC | -0.144
GATCTTTA | 0.167

Series 3 — technique: DHFR PCA, deep sequencing; matrix: yeast; together with: (+)-ABA 0 µM; reference: wild-type fitted maximum; reading: higher = stronger binding
Target: ABI1, truncated, D143A, DHFR fusion (Arabidopsis thaliana)
Setting: methotrexate growth selection, single substitutions
Parent: PYL1, truncated, DHFR fusion (Arabidopsis thaliana); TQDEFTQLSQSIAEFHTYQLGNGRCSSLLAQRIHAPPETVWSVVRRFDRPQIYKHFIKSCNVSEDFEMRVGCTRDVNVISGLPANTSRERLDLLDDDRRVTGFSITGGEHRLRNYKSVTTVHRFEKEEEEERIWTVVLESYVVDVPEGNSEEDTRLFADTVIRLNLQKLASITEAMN
Variant | relative binding score [%]
S87R | 62.1
P50W | 7.09
V143T | 13.3
F157E | 6.66
E89K | 6.13
A13L | 19.5
D153I | -9.31
R132L | 11.7
Q31H | 2.76
K54V | -0.366
T6S | 39.2
Q2C | 28.6
V78G | 8.59
L94E | -4.93

Series 4 — technique: universal PBM; form: double-stranded DNA, one strand shown; matrix: in vitro; concentration: not given; reading: higher = stronger binding
Target: Sal-like protein 4, full length isoform B (SALL4, Homo sapiens, UniProt Q9UJQ4-2, residues 1-616)
Setting: 8-mer, flanks averaged, mean of replicates
Oligonucleotide | E-score
AGCGCGGA | -0.207
GACATGTA | 0.236
CCACGGCG | -0.237
CTAATAAC | 0.327
TACAAGGA | -0.0481
CTATTAAG | 0.169
CAAGTACG | -0.0397
ACAAGCAG | 0.0523
AAAATCGG | 0.0478
AGATGTGA | 0.0708
CTCCAGGA | -0.17
GGACAACC | -0.255
AACTGGGA | -0.12
TAGAAAAA | 0.178
GGAGCCAA | -0.0137
AACGGTAC | -0.0162
GCACTACC | -0.0088
CATTATCC | 0.169
AAATCCGG | -0.202

Series 5 — target: CCNB3, cyclin fold, Cln2 fusion (human); technique: yeast growth competition, sequencing; matrix: yeast; setting: weak parent motif; reference: not given; reading: higher = stronger binding
Parent: MASTL docking peptide (human); PMIAKNLMCELDE
Variant | normalised enrichment score
PMIAKNLNCELDE [M8N] | -0.108
PMIAKNLMHELDE [C9H] | -0.166
PMIAKNLMCELTE [D12T] | 0.145
PMIAKNLMCHLDE [E10H] | 0.09
PMIAKNLMCELFE [D12F] | 0.364
PMIAKILMCELDE [N6I] | 0.00403
PMIANNLMCELDE [K5N] | 0.225
PMIAVNLMCELDE [K5V] | 0.14
PMIAKNCMCELDE [L7C] | 0.143
PMIAKNEMCELDE [L7E] | 0.28
PMIAKNLMCEADE [L11A] | 0.0299
PIIAKNLMCELDE [M2I] | -0.112
PPIAKNLMCELDE [M2P] | -0.31
PMIAKNLMCDLDE [E10D] | 0.0719

Series 6 — technique: RNA Bind-n-Seq; form: RNA; matrix: in vitro; concentration: 1 µM; setting: whole 134-nt RNA, ends assumed; together with: 150 mM KCl; reference: input library; reading: higher = stronger binding
Target: Ras GTPase-activating protein-binding protein 1, RRM domain (G3BP1, Homo sapiens, UniProt Q13283)
Sequence of UniProt Q13283 (whole entry, looked up): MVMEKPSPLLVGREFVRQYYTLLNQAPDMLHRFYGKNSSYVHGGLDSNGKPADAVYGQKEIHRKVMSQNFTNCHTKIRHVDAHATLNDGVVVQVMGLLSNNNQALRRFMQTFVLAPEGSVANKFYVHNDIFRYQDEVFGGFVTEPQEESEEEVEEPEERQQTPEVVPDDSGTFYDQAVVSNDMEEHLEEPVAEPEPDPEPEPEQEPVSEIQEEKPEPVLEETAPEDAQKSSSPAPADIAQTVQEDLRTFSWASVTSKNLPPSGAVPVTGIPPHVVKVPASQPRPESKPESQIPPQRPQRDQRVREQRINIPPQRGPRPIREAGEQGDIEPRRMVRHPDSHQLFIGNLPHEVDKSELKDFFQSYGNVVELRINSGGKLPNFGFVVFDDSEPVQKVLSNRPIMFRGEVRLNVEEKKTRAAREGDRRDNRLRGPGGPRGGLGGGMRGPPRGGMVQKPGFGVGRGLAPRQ
Oligonucleotide | log2 enrichment
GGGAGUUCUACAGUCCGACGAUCGUCCUGUGCUACACAUCGUAUGUACCGAAUCGGGUUUUUGGGUUUUUGGGUUUUUGGGGAAAGUAUUAUGUUACGCCGUUCGGAUCUGCAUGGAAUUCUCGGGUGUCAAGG | 0.428
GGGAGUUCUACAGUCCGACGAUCGCAGGAAGUAAAAACAAAUGGAGAUGCUUCGGAUAGUGGCAGGGGUGGGGGUUGCUAAGGAAAGGGUGGGAUGGGAGUGGGUAAAGAGUUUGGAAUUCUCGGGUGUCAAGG | 1.6
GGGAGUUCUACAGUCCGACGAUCAAGUCCUGUGCUACACAUCGUAUGUACCGAAUCGGGGCCCGGGCCCGGGCCCGGGGAAAGUAUUAUGUUACGCCGUUCGGAUCUGCACUUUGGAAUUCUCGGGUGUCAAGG | -0.646
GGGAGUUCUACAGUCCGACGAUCCCUCAAGUCCUGUGCUACACAUCGUAUGUACCGAAUCGGUGGUUUGGUUUGGAAAGUAUUAUGUUACGCCGUUCGGAUCUGCACUUCCAGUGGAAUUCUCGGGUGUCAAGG | -0.369
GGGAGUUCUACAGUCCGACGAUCCUGUGCUACACAUCGUAUGUACCGAAUCGGGCCCCCCCGGCCCCCCCGGGGCCCCCCCGGGAAAGUAUUAUGUUACGCCGUUCGGAUCUGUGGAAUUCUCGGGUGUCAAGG | -0.677
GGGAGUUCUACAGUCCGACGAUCGUCCUGUGCUACACAUCGUAUGUACCGAAUCGGGUUUUUUUGGGUUUUUGGGAAAGGGAAAGUAUUAUGUUACGCCGUUCGGAUCUGCACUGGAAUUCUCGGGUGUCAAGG | 0.122
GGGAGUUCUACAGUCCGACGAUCCUCAAGUCCUGUGCUACACAUCGUAUGUACCGAAUCGGUUUUUUUGGAGGUGGAAAGUAUUAUGUUACGCCGUUCGGAUCUGCACUUCCAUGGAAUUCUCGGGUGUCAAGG | -0.148
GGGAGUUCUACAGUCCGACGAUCCCUCAAGUCCUGUGCUACACAUCGUAUGUACCGAAUCGGGGCGGGGCGGCGGAAAGUAUUAUGUUACGCCGUUCGGAUCUGCACUUCCAGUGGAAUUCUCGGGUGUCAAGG | -0.342
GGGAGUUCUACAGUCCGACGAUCAAGUCCUGUGCUACACAUCGUAUGUACCGAAUCGGUUUUGGUUUUGGGGUUUUGGGGAAAGUAUUAUGUUACGCCGUUCGGAUCUGCACUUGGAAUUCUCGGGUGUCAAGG | -0.209
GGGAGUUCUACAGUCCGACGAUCCACAGACAACACGCACCCACACAGACACACAGGGAAGGGGUUGGGAUGGGGACAGGGUGCACAGCAGGGCGGGGUAGGACCCCAGCCCCUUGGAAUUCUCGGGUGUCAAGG | 0.245
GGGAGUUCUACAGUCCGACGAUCAAGUCCUGUGCUACACAUCGUAUGUACCGAAUCGGAAAAAAAGGAAAAAAAGGAGGAAAGUAUUAUGUUACGCCGUUCGGAUCUGCACUUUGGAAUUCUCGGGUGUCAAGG | -0.105
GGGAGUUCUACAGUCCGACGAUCUUCCUCAAGUCCUGUGCUACACAUCGUAUGUACCGAAUCGGUGGUGGAGGAAAGUAUUAUGUUACGCCGUUCGGAUCUGCACUUCCAGCAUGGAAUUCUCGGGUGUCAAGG | -0.315
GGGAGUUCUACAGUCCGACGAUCGAAAUUAUGGAAGUGGAAAUUACAAUGAUUUUGGAAAUUAUAACCAGCAACCUUCUAACUACGGUCCAAUGAAGAGUGGAAACUUUGGUGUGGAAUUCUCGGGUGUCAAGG | -0.155
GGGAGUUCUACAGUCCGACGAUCAGUCCUGUGCUACACAUCGUAUGUACCGAAUCGGGGUUUUGGUUUUGGGGUUUUGGGAAAGUAUUAUGUUACGCCGUUCGGAUCUGCACUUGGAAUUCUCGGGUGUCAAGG | -0.000447

Some of these lines once more (series 6):
Oligonucleotide | log2 enrichment
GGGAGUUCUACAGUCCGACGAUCGUCCUGUGCUACACAUCGUAUGUACCGAAUCGGGUUUUUGGGUUUUUGGGUUUUUGGGGAAAGUAUUAUGUUACGCCGUUCGGAUCUGCAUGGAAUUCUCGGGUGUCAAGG | 0.428
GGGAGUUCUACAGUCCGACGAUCAAGUCCUGUGCUACACAUCGUAUGUACCGAAUCGGGGCCCGGGCCCGGGCCCGGGGAAAGUAUUAUGUUACGCCGUUCGGAUCUGCACUUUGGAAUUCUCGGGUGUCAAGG | -0.646
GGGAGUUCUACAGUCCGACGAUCCCUCAAGUCCUGUGCUACACAUCGUAUGUACCGAAUCGGUGGUUUGGUUUGGAAAGUAUUAUGUUACGCCGUUCGGAUCUGCACUUCCAGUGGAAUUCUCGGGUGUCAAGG | -0.369
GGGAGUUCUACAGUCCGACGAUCUUCCUCAAGUCCUGUGCUACACAUCGUAUGUACCGAAUCGGUGGUGGAGGAAAGUAUUAUGUUACGCCGUUCGGAUCUGCACUUCCAGCAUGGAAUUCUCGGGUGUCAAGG | -0.315
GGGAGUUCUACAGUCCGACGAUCCCUCAAGUCCUGUGCUACACAUCGUAUGUACCGAAUCGGGGCGGGGCGGCGGAAAGUAUUAUGUUACGCCGUUCGGAUCUGCACUUCCAGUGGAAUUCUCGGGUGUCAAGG | -0.342
